Measured values gathered from unrelated publications.
Every numbered part comes from another study and shows a few of its results, in no order. Values joined by “and” are separate records of one study, mostly repeats; a detail may differ.

Set 1
Cell line: mouse MPNST tumor cells
Method: high-content immunofluorescence imaging
Item: nuclear SOX9
Tested at: 10 µM
Time: 12 h
Setting: mean of 2 replicates
Relative to: DMSO control
Direction: higher = more nuclear SOX9
| Compound | nuclear SOX9 intensity |
| --- | --- |
| COc1ccnc(C[S+]([O-])c2nc3cc(OC(F)F)ccc3[nH]2)c1OC (stereo not drawn) | 94.7 % of DMSO |
| Cn1c(=O)c2c(ncn2CCO)n(C)c1=O | 98 % of DMSO |
| O=C(c1cccc(Br)c1)N1CCC(N2CCCC2)CC1 | 84.6 % of DMSO |
| O=[N+]([O-])c1cnc(CO)n1CCO | 101 % of DMSO |
| C#CCN[C@@H]1CCc2ccccc21 | 87.3 % of DMSO and 125 % of DMSO |
| O=C(Nc1cccc(Cl)c1)Nc1ncc(CCNc2ncnc3ccsc23)s1 | 171 % of DMSO |

Set 2
Target: Platelet-derived growth factor receptor alpha (PDGFRA, Homo sapiens, UniProt P16234)
UniProt P16234, sequence (whole entry, looked up): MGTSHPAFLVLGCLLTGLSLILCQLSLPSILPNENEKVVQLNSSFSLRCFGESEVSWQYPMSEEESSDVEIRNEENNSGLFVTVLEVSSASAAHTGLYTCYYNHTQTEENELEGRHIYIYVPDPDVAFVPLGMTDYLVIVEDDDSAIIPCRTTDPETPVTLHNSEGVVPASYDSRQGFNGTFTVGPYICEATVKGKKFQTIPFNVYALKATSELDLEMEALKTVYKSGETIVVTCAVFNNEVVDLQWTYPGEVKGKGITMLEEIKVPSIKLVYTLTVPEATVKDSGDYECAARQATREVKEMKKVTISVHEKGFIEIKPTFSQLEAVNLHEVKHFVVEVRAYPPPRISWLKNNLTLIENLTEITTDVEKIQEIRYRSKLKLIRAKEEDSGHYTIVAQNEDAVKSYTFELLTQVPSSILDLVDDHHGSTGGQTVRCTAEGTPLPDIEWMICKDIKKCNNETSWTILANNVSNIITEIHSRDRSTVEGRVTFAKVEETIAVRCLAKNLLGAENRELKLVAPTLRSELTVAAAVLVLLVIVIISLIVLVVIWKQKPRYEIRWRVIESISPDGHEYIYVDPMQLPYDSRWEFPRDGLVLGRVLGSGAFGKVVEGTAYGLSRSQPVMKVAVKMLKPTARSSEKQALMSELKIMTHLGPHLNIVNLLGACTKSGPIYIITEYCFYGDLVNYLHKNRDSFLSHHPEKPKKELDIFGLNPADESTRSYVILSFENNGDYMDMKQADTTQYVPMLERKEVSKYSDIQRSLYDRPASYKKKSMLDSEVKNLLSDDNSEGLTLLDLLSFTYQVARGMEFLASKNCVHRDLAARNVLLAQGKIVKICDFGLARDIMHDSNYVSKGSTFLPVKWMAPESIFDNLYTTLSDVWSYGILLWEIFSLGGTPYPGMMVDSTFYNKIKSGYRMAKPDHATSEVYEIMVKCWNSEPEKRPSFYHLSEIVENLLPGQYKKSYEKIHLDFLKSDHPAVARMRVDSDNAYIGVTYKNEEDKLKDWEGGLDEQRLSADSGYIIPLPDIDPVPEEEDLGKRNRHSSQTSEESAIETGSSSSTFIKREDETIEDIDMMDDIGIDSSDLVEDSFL
Observed: enzyme activity
Mode: inhibitor
Tested at: 0.5 µM
Relative to: control
| Compound | remaining activity |
| --- | --- |
| O=C(O)/C=C/c1cc(Br)c(Br)c(Br)c1Br | 105% |
| FC(F)(F)c1ccc(/C=C/c2nc(COc3ccc(CCCCn4ccnn4)cc3)co2)cc1 | 104% |
| Clc1ccc(Nc2nnc(Cc3ccncc3)c3ccccc23)cc1 | 33.3% |
| CNc1cc2c(Nc3cccc(Br)c3)ncnc2cn1 | 99% |
| CC(C)(C)c1nc2c3cc[nH]c(=O)c3c3cc(F)ccc3c2[nH]1 | 92.1% |
| c1cc(-c2cnn3cc(-c4ccc(OCCN5CCCCC5)cc4)cnc23)ccn1 | 3.7% |
| CC(C)n1cnc2c(Nc3cccc(Cl)c3)nc(NCCO)nc21 | 96.4% |
| O=Nc1c(-c2c(O)[nH]c3ccccc23)[nH]c2ccccc12 | 90.9% |
| COc1cc2c(N3CCN(C(=O)Nc4ccc(OC(C)C)cc4)CC3)ncnc2cc1OCCCN1CCCCC1 | 11.1% |
| NC(=O)c1ccc(-c2nc(-c3ccc4c(c3)OCCO4)c(-c3ccccn3)[nH]2)cc1 | 95.8% |

Single results of other studies
| SMILES | tested on | test | test system | setting | how to read | measurement | value |
| --- | --- | --- | --- | --- | --- | --- | --- |
| CN(c1ccnc(CNc2nc(Nc3ccc4c(c3)CC(=O)N4)ncc2C(F)(F)F)n1)S(C)(=O)=O | normal organoid sample D | CellTiter-Glo | human | 1 µM, 4 days | relative to: DMSO | viability | 95.1% and 75.9% |
| CC(=O)N[C@@H](Cc1c[nH]c2ccccc12)C(=O)N[C@@H](CCC(=O)C=[N+]=[N-])C(=O)OC(C)C |  | UPLC-MS/MS | EL4 tumor, C57BL/6 CES1-/- mice, tumor | subcutaneous, 0.3 mg/kg DON equivalent daily, 5 days | higher = more metabolite | stachydrine level | 1.81e+07 a.u. and 1.62e+07 a.u. and 1.97e+07 a.u. and 2.13e+07 a.u. and 1.53e+07 a.u. and 2.18e+07 a.u. |
| CN(C)C(=O)N1CC[C@H](N=C2Nc3cc(F)ccc3N(CC(F)F)c3ccc(Cl)cc32)C1 | colorectal tumour organoids |  |  | 0.1 µM | relative to: DMSO | viability | 114% |
| CCCCN(Cc1ccccc1)C(=O)c1ccc(S(=O)(=O)Nc2ccccc2)cc1 | normal organoid sample D | CellTiter-Glo | human | 1 µM, 4 days | relative to: DMSO | viability | 118% and 108% |
| CN(C)C(=O)/C(C#N)=C/c1ccc(-c2nc3cnc4c(ccn4C)c3n2C2CCCCC2)o1 | colorectal tumour organoids |  |  | 0.1 µM | relative to: DMSO | viability | 110% |

Some of these lines once more (set 2):
| Compound | remaining activity |
| --- | --- |
| CC(C)(C)c1nc2c3cc[nH]c(=O)c3c3cc(F)ccc3c2[nH]1 | 92.1% |
| COc1cc2c(N3CCN(C(=O)Nc4ccc(OC(C)C)cc4)CC3)ncnc2cc1OCCCN1CCCCC1 | 11.1% |
| c1cc(-c2cnn3cc(-c4ccc(OCCN5CCCCC5)cc4)cnc23)ccn1 | 3.7% |
